Experimental data gathered from unrelated publications.
Parts stem from different laboratories: compare values within a part only. Positions count from the first letter of the parent shown.
Chain of UniProt O15294 (whole entry, looked up): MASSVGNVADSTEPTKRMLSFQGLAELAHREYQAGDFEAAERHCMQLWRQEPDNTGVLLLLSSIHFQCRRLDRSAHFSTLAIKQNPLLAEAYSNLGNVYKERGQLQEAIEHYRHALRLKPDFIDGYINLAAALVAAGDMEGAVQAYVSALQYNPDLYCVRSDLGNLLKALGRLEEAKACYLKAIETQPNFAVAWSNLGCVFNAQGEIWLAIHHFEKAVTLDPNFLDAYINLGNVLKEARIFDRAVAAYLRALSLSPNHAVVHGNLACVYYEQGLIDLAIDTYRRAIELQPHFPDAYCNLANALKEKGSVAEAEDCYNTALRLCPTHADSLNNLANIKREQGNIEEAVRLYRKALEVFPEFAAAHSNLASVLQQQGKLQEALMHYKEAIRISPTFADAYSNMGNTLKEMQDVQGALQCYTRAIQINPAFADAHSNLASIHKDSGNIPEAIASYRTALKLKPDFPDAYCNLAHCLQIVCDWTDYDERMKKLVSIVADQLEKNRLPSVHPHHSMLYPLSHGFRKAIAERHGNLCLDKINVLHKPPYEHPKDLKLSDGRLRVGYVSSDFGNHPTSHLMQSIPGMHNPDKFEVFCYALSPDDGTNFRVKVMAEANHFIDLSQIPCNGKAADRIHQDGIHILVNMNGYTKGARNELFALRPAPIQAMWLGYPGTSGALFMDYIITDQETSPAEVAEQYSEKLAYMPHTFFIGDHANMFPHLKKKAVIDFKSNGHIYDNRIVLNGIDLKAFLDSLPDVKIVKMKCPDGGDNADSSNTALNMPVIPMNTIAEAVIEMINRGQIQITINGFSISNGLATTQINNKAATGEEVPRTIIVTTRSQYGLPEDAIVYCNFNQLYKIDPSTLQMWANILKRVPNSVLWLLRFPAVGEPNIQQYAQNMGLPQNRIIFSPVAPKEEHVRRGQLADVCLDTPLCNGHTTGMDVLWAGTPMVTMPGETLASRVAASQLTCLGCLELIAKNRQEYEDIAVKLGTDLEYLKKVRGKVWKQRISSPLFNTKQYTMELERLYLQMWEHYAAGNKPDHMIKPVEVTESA

Block 1
Target: Probable WRKY transcription factor 33, C-terminal DNA-binding domain (WRKY33, Arabidopsis thaliana, UniProt Q8S8P5, residues 346-449)
Method: DNA-protein interaction ELISA
Molecule type: double-stranded DNA, one strand shown
Sample: in vitro, bacterial lysate
Tested at: not given
Setting: whole dsDNA probe, crude lysate protein
Baseline: highest signal in screen
Reading: higher = stronger binding
Residues (chain): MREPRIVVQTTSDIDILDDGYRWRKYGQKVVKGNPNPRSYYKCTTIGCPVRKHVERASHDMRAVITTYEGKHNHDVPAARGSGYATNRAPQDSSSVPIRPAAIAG
Strand	relative absorbance
AAAAAATGTCTAGACTCGGACATTCGAAAA	29.2 % of maximum
AAAAAAGGCCACGGTAACCCCTTTTGAAAA	35 % of maximum
AAAAAAAGGGTGCTATTCGTCGACACAAAA	59.2 % of maximum
AAAAAATGGCTCGGGTTCCAAGGTTGAAAA	37.3 % of maximum
AAAAAATATCTGATCCAATTTAGGTCAAAA	34.2 % of maximum
AAAAAAACCGATTACCATTTTTACTGAAAA	48.5 % of maximum
AAAAAAACCCGGCCGCCATGGTAGTAAAAA	46 % of maximum
AAAAAAGCCATCATGGTTAGTGTACAAAAA	37 % of maximum

Block 2
Target: CCNA1, cyclin fold, Cln2 fusion (human)
Method: yeast growth competition, sequencing
Sample: yeast
Setting: weak parent motif
Baseline: not given
Reading: higher = stronger binding
Parent: ORC1 docking peptide (human); PRARKRLELGNLG
Substitution	normalised enrichment score
PRARKRMELGNLG [L7M]	0.0655
PRAIKRLELGNLG [R4I]	0.287
PRARKRLELWNLG [G10W]	0.682
PRARIRLELGNLG [K5I]	0.309
KRARKRLELGNLG [P1K]	0.708
PRARKGLELGNLG [R6G]	0.776
PRARKLLELGNLG [R6L]	0.205
PRARKRLELGNLA [G13A]	0.153

Block 3
Target: ABI1, truncated, D143A, DHFR fusion (Arabidopsis thaliana)
Method: DHFR PCA, deep sequencing
Sample: yeast
Setting: methotrexate growth selection, single substitutions
Together with: (+)-ABA 0 µM
Baseline: wild-type fitted maximum
Reading: higher = stronger binding
Parent: PYL1, truncated, DHFR fusion (Arabidopsis thaliana); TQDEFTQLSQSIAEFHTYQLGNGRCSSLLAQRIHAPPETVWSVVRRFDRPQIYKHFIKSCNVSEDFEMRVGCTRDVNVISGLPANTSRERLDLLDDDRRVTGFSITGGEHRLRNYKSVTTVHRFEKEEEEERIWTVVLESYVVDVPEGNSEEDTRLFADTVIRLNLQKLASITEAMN; partner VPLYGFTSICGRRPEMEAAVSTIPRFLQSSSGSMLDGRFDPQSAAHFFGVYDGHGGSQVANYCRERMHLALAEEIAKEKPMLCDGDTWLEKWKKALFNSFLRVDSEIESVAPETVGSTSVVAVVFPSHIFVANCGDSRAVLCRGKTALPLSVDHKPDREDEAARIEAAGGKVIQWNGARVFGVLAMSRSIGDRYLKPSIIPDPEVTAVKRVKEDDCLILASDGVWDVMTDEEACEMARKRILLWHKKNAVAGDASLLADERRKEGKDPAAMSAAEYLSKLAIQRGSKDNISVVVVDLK
Substitution	relative binding score
H122F	-14.4%
R99G	-3.99%
I133D	46.8%
H122R	2.06%
N165R	10.4%
L8D	-3.94%
Q2G	7.98%
N177P	15%

Other studies, line by line
Molecule	target	assay	test system	conditions	scale	endpoint	value
YMPQYQIMAQDKKV	UDP-N-acetylglucosamine--peptide N-acetylglucosaminyltransferase 110 kDa subunit (OGT, Homo sapiens, UniProt O15294)	binding, phage display NGS	peptide	panning round 2	baseline: input library	minimum log2 enrichment ratio	1.54

Excerpt of the above (block 2):
Substitution	normalised enrichment score
PRARIRLELGNLG [K5I]	0.309
KRARKRLELGNLG [P1K]	0.708
PRARKGLELGNLG [R6G]	0.776
